Results collected from several papers.
A part holds a random share of what one study measured.

Series 1 — method: protein-binding microarray; form: double-stranded DNA, one strand shown; medium: in vitro; concentration: 250 nM; notes: 60-bp whole probe; with: salmon DNA 0.4 mg/ml; reference: random background probes; reading: higher = stronger binding; shared flanks, not repeated: GCCTAGCAC … GTCTTGATTCGCTTGACGCTGCTG
Target: Interferon regulatory factor 5, full length, phosphomimetic (IRF5, Homo sapiens, UniProt Q13568-2, residues 1-514, K96S/S451D/S453D/S456D/S462D)
With `GACGATATCGGATTTCGAGACGTGCTA` the log fluorescence was 1.98 z-score.
`GACGGTATCCTTTTCATGACGTGCTAG` gave a log fluorescence of 0.419 z-score.
`TTAGATTTCAGTTTCGATTAGTGCTAG` has a log fluorescence of 10.3 z-score.
`TCTTTTTGCTTTCTTTTATGGTGCTAG` has a log fluorescence of 2.99 z-score.
`GACGCTTTCAGTTTCGAGACGTGCTAG` gave a log fluorescence of 8.7 z-score.
The log fluorescence of `TTAGGTAGCCTTCTCCTTTAGTGCTAG` is reported as -0.168 z-score.
`GACGGCTTCCTTATCCTGACGTGCTAG` gave a log fluorescence of -0.429 z-score.
For `TAAGATCTCAGTATCGATTAGTGCTAG`, the log fluorescence was 6.92 z-score.
The log fluorescence of `TTAGGCCTGCTACTGCTTTAGTGCTAG` is reported as -0.506 z-score.
With `GACGGACTGCGTCTCGGGACGTGCTAG` the log fluorescence was -0.793 z-score.
For `TTAGGACTGGGGAATCGGTTAGTGCTA`, the log fluorescence was -0.0518 z-score.
With `TCAGCCCTCGGTTTACAACTGTGCTAG` the log fluorescence was 0.159 z-score.

Series 2 — method: competition protein-binding microarray; form: double-stranded DNA, one strand shown; medium: in vitro; concentration: 2 µM; with: Pho4 competitor, 0.05 µM; reading: higher = stronger binding
Target: Centromere-binding protein 1, full length, His-tagged (CBF1, Saccharomyces cerevisiae, UniProt P17106, residues 1-351)
UniProt P17106, sequence (whole entry, looked up): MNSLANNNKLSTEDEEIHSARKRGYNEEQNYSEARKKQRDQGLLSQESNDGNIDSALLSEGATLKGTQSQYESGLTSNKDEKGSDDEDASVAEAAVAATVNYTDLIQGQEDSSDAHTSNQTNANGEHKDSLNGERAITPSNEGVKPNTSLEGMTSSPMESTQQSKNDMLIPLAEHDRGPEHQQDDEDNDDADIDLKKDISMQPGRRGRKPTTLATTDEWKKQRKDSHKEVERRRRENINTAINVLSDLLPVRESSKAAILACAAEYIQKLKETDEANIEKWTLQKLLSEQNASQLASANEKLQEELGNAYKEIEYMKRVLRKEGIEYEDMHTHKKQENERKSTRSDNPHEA
Notes: whole 60-bp probe, lowest competitor level
For `CGGGGTTAAGTTTTTCACGTGCCGTGCTTTCAGCAGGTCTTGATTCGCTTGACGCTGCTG`, the fluorescence intensity was 833 a.u.
`CTAACGAAGGTTTGCACAGTGGGTGACAAGCCAAGTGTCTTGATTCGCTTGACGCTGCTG` gave a fluorescence intensity of 63.3 a.u.
For `GTCTTGTCTCATTGCGATGTGGGTGTCCCCACTTCAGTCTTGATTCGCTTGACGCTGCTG`, the fluorescence intensity was 72.1 a.u.
`TCGATGTCAAAAAATCTCGTGAGACCTCCGGAATTTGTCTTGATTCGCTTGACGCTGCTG` has a fluorescence intensity of 124 a.u.
With `GTCTTGTCTCATTGGCATGTGGGTGTCCCCACTTCAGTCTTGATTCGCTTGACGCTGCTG` the fluorescence intensity was 107 a.u.
`GTCTTGTCTCATTGGAGTGTGGGTGTCCCCACTTCAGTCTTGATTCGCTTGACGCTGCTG` has a fluorescence intensity of 65.1 a.u.
With `TGTTTGGGTTTTTAGCACGTCGTACACTGGCCTTTAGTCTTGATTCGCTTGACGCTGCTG` the fluorescence intensity was 78.7 a.u.
With `TATTCAGAAACGAGTCACGTTGTGGAAAATCTCCCTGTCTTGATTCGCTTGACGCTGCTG` the fluorescence intensity was 1160 a.u.
With `AATTTCCGGCTTCTTCACGTTATGCACCATCACCTTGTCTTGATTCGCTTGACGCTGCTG` the fluorescence intensity was 84.9 a.u.
`CTTTCCCGATCTTGCTGAGTGGGTGTAGCACATTTGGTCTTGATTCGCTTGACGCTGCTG` gave a fluorescence intensity of 68.2 a.u.
With `AAAGCGGTAATTTGTTGAGTGGGTGCAGATATCTATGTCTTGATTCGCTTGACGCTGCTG` the fluorescence intensity was 80.7 a.u.
`CATACCCAACCTTGTCACCCCACTTAAGATATTTGTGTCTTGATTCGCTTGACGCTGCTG` gave a fluorescence intensity of 83.2 a.u.
With `TCAATAAATAATGCTCGCGTGGCCGAATGGCAACGCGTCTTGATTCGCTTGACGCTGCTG` the fluorescence intensity was 101 a.u.
`CTTCTGTAAATTTGCAAGGTGGGTGGACGCGCCCCGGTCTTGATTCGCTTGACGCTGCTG` gave a fluorescence intensity of 72 a.u.

Series 3 — method: RNA Bind-n-Seq; form: RNA; medium: in vitro; concentration: 365 nM; reference: no-protein control; reading: higher = stronger binding
Target: RNA binding protein fox-1 homolog 2, RRM domain, GST-SBP tag (RBFOX2, Homo sapiens, UniProt O43251-10, residues 100-194)
Notes: natural RNA segment, single round, ends assumed
Residues (chain): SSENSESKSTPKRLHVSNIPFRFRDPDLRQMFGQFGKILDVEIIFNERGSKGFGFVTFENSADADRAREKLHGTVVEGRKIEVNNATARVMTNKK
For `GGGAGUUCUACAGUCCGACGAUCCACUAAUGAAAGUUGAAAAUAUGUCUUCAAAUCAGGAUGGCAAUGAUUCAGAUGAAUUCAUGUAAAAGGAGAAAAGGAGAAAAGGACCUUUGAAAGAUGUGAAUGUAGAGUGGAAUUCUCGGGUGCCAA`, “RBNS enrichment (R)” read 1.33.
`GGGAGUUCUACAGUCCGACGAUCUUCUUGCGUAGUUAUGACCAUUGAAUUUAGUUCCCAACAUUCUUUUUGGGUGGCUCGAAACUUCCUGUAACUCCAGCUCCUUGGACAUCCAAUAUCUCUGGCCUGCACACUGGAAUUCUCGGGUGCCAA` — result for “RBNS enrichment (R)”: 0.385.
`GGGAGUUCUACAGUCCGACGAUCUUGGUCACAUGAGUCUGUCUCCUUACUUUAGUCCCUGGGCAAUCCUUGCUUAAUGCUUUUGUUGACUCAACAAGGGCCCGAGGCCUUAGGUUUUCUAUUAAGGUCUCUGCUGGAAUUCUCGGGUGCCAA`: “RBNS enrichment (R)” 0.213.
`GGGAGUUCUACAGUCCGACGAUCUAAACCCCUCCGGCUUGAGGAGAGUGCAAUCAUGGCUCUGCUGCCUGCACUUGCUGGGUUCCUCCCCUCUGCCUCCUUUCUUGAACUCAGAGGUAGGGACUAAGCACCAGUGGAAUUCUCGGGUGCCAA`: “RBNS enrichment (R)” 0.334.
For `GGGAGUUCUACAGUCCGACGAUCGGGAGAAUGGGAGGCUUGGCCUUCUUUGUGAGGCAGUGUGAGCAGAAGCUGAUGCCAGCAUGUCACUGGUUUUGAAGGGAUGAGCCCAGACUUGAUGUUUUGGGAUUGUCUGGAAUUCUCGGGUGCCAA`, “RBNS enrichment (R)” read 3.65.
For `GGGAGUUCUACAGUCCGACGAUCGCCAGCUGCACCCCGCCUGGCUCGCACAGGCUAAGACCACAGACAGAGCAGGGCUUCCCGGAGCCACACAGGCCACGCACCCCAGGAACCCUUGCUGCCGCGGGCCAGGAUGGAAUUCUCGGGUGCCAA`, “RBNS enrichment (R)” read 0.456.
For `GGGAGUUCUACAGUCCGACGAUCCUAUACCGGAAUGUCCCUGCAGUGCCAGAGACGCAGUGCUGGGAAAACAACCACAGAAACAUCUCUCCUUUGUGUAUUUUUCCCUCCCCCACCUUUCACCCCACAGUGGUUGGAAUUCUCGGGUGCCAA`, “RBNS enrichment (R)” read 0.556.
Under “RBNS enrichment (R)”, `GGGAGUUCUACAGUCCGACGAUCUCAAAGGGAGAGAAAAGCUGGGCUUUUCCCUUGCUGUACCUCAUUCAGCUUUUGAUUUCCAUGGCCCCACCAUUUAUGUGCAAGAUUUGCAAUGGUUGUCAGCUUCCUCUUGGAAUUCUCGGGUGCCAA` is recorded as 0.431.
Under “RBNS enrichment (R)”, `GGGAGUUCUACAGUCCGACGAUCUAUUCUUUAUAUAAGGUGGGCAUCAAGCAACCAGAAGUGCAAACUUCCCUCCCUUUACUUCUGUUGCCUUGUGUAUAAAACUGCCCCCAGCUUGCCUAGAGACGUUGCCUUGGAAUUCUCGGGUGCCAA` is recorded as 0.809.
`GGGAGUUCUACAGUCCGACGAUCUUGAAUUAUUUUAUCAUGCUGUUGCUGGGGAAUAUGACUAACCCUUUUGAAGCUACUAAUUUUAUGUCGAGCUUUAAAGUCCAUAAUUGUUAUCUUCAGAAAAUAUUAUUUGGAAUUCUCGGGUGCCAA` — result for “RBNS enrichment (R)”: 0.507.
`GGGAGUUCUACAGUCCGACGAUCUAUCUUUAAACACAAAAAACCCUGAAAUGUAUAUUUGGAUCGUUUUAAGGCAAUUGAAGACACGCAACCUCAGGUAUCCCGCUUUAUAUCGAUAGCUCCUCCCCCGGGAGUGGAAUUCUCGGGUGCCAA` — result for “RBNS enrichment (R)”: 0.434.
For `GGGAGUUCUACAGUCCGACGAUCCGGCAAACCCUAUGAAAGUGGAAUUUUCUAACAAAAUAAACUUGCUUGUUUGAUCUGUUUUCUGUAACUUUUGCUAAAUACUUUAUACAUUUUUCAUGUUAAAGAGCCGUUGGAAUUCUCGGGUGCCAA`, “RBNS enrichment (R)” read 0.509.

Series 4 — target: UBE2C UBC core domain (UniProt O00762); method: yeast two-hybrid; medium: yeast; notes: mostly zero background; reference: not given; reading: higher = stronger interaction
B1: RUFY1 RING domain (UniProt Q96T51); chain QALKGHAWLKDDEATHCRQCEKEFSISRRKHHCRNCGHIFCNTCSSNELALPSYPKPVRVCDSCHTLLLQRCSSTAS
B2: RNF103 RING domain (UniProt O00237); chain WPADMLHCTECVVCLENFENGCLLMGLPCGHVFHQNCIVMWLAGGRHCCPVCRWPSYKKKQPY
B3: NFX1 RING domain (UniProt Q12986); chain IEQLTTEKYECMVCCELVRVTAPVWSCQSCYHVFHLNCIKKWARSPASQADGQSGWRCPACQNVSAHVPNTY
B4: ARIH2 RING domain (UniProt O95376); chain HVPTSHPPHHCAVCMQFVRKENLLSLACQHQFCRSCWEQHCSVLVKDGVGVGVSCMAQDCPLRTPEDFVF
B5: TRIM41 RING domain (UniProt Q8WV44); chain PVQTLQEEAVCAICLDYFTDPVSIGCGHNFCRVCVTQLWGGEDEEDRDELDREEEEEDGEEE
Construct (chain): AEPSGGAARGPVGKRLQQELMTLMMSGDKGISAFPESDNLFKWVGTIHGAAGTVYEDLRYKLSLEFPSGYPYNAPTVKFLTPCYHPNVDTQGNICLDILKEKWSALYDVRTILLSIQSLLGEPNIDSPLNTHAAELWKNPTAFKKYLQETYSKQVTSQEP
For `ASEEEFQFLRCQQCQAEAKCPKLLPCLHTLCSGCLEASGMQCPICQAPWPLGADTP (PML RING domain (UniProt P29590))`, “lacZ reporter activity” read 0.
`B1 (RUFY1 RING domain)` — result for “lacZ reporter activity”: 0.
`B2 (RNF103 RING domain)`: “lacZ reporter activity” 0.
For `B3 (NFX1 RING domain)`, “lacZ reporter activity” read 0.
`DDVLTKDAGECVICLEELLQGDTIARLPCLCIYHKSCIDSWFEVNRSCPEHPAD (ZNRF1 RING domain (UniProt Q8ND25))`: “lacZ reporter activity” 0.
`B4 (ARIH2 RING domain)`: “lacZ reporter activity” 0.
`B5 (TRIM41 RING domain)` — result for “lacZ reporter activity”: 0.

For quick reference, copied from above (series 3):
`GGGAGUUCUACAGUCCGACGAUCUUGAAUUAUUUUAUCAUGCUGUUGCUGGGGAAUAUGACUAACCCUUUUGAAGCUACUAAUUUUAUGUCGAGCUUUAAAGUCCAUAAUUGUUAUCUUCAGAAAAUAUUAUUUGGAAUUCUCGGGUGCCAA` — result for “RBNS enrichment (R)”: 0.507.
`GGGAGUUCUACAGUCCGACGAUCUAUCUUUAAACACAAAAAACCCUGAAAUGUAUAUUUGGAUCGUUUUAAGGCAAUUGAAGACACGCAACCUCAGGUAUCCCGCUUUAUAUCGAUAGCUCCUCCCCCGGGAGUGGAAUUCUCGGGUGCCAA` — result for “RBNS enrichment (R)”: 0.434.
For `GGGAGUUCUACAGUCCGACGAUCCGGCAAACCCUAUGAAAGUGGAAUUUUCUAACAAAAUAAACUUGCUUGUUUGAUCUGUUUUCUGUAACUUUUGCUAAAUACUUUAUACAUUUUUCAUGUUAAAGAGCCGUUGGAAUUCUCGGGUGCCAA`, “RBNS enrichment (R)” read 0.509.
